Measured values collected from several papers.
Parts stem from different laboratories: compare values within a part only.

Sample 1 — method: protein-binding microarray; molecule type: double-stranded DNA, one strand shown; sample: in vitro; tested at: 2200 nM top; setting: 60-bp whole probe; together with: salmon DNA 0.4 mg/ml; reference: random background probes; direction: higher = stronger binding; shared flanks, not repeated: GCCTAGCAC … GTCTTGATTCGCTTGACGCTGCTG
Target: Interferon regulatory factor 7, full length, phosphomimetic (IRF7, Homo sapiens, UniProt Q92985, residues 1-503, S471D/S472D/S475D/S476D/S477D/S483D/S484D/S487D)
Sequence of UniProt Q92985 (whole entry, unmodified, looked up): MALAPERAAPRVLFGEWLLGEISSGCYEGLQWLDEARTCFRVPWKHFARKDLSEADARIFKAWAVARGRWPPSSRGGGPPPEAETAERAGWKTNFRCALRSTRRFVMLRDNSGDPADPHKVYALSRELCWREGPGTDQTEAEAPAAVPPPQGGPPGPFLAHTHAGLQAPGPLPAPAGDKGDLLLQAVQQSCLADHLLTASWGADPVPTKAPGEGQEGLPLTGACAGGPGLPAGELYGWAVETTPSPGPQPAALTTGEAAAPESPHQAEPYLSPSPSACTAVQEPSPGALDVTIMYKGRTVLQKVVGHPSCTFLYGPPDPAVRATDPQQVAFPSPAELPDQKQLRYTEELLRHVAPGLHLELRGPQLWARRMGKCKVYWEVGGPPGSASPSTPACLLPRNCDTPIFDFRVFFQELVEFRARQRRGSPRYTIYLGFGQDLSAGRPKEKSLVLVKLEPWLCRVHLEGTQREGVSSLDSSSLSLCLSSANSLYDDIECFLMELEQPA
Strand	fitted relative affinity [z-score]
TTAGGTTTCAGGTTTCGGTTAGTGCTA	6.78
TGTCATATACACATCTTCTGGTGCTAG	1.11
TAAGGTTTCGGACTGGGTTAGTGCTAG	2.96
ATAGGTCTCCTTCTCCTTTAGTGCTAG	1.24
GTTTGGGTCTTGTCTGGAGTCGTGCTA	0.905
TAGAGTAGCTTTCTGAGGGCGTGCTAG	-0.295

Sample 2 — method: RNA Bind-n-Seq; molecule type: RNA; sample: in vitro; tested at: 200 nM; setting: whole 134-nt RNA, ends assumed; together with: 150 mM KCl; reference: input library; direction: higher = stronger binding
Target: Fragile X messenger ribonucleoprotein 1, C-terminal low-complexity region (Fmr1, Mus musculus, UniProt P35922)
Strand	log2 enrichment
GGGAGUUCUACAGUCCGACGAUCAAGUCCUGUGCUACACAUCGUAUGUACCGAAUCGGUUUUUUUGGAAAGGUUUUUGGAAAGUAUUAUGUUACGCCGUUCGGAUCUGCACUUUGGAAUUCUCGGGUGUCAAGG	-1.13
GGGAGUUCUACAGUCCGACGAUCACCAUGCAGGUGGGCAUCUUUGGGAAGUGGGGCAAGGGGGGGAUAGGGAGGGGGGUAACAAUUUGGGAACAGGUGGUCCCAGGUCGUUUCUGGAAUUCUCGGGUGUCAAGG	0.62
GGGAGUUCUACAGUCCGACGAUCUCAAGUCCUGUGCUACACAUCGUAUGUACCGAAUCGGGGCCGGGCCGGCCGGGGAAAGUAUUAUGUUACGCCGUUCGGAUCUGCACUUCCUGGAAUUCUCGGGUGUCAAGG	-0.00457
GGGAGUUCUACAGUCCGACGAUCCCUGUGCUACACAUCGUAUGUACCGAAUCGGGGUUUUUUGGGGUUUUUUGGUUUUUUGGGGAAAGUAUUAUGUUACGCCGUUCGGAUCUGUGGAAUUCUCGGGUGUCAAGG	-0.566

Sample 3 — method: universal PBM; molecule type: double-stranded DNA, one strand shown; sample: in vitro; tested at: 600 nM; direction: higher = stronger binding
Target: Sal-like protein 4, full length isoform A (SALL4, Homo sapiens, UniProt Q9UJQ4, residues 1-1053)
Sequence of UniProt Q9UJQ4 (whole entry, looked up): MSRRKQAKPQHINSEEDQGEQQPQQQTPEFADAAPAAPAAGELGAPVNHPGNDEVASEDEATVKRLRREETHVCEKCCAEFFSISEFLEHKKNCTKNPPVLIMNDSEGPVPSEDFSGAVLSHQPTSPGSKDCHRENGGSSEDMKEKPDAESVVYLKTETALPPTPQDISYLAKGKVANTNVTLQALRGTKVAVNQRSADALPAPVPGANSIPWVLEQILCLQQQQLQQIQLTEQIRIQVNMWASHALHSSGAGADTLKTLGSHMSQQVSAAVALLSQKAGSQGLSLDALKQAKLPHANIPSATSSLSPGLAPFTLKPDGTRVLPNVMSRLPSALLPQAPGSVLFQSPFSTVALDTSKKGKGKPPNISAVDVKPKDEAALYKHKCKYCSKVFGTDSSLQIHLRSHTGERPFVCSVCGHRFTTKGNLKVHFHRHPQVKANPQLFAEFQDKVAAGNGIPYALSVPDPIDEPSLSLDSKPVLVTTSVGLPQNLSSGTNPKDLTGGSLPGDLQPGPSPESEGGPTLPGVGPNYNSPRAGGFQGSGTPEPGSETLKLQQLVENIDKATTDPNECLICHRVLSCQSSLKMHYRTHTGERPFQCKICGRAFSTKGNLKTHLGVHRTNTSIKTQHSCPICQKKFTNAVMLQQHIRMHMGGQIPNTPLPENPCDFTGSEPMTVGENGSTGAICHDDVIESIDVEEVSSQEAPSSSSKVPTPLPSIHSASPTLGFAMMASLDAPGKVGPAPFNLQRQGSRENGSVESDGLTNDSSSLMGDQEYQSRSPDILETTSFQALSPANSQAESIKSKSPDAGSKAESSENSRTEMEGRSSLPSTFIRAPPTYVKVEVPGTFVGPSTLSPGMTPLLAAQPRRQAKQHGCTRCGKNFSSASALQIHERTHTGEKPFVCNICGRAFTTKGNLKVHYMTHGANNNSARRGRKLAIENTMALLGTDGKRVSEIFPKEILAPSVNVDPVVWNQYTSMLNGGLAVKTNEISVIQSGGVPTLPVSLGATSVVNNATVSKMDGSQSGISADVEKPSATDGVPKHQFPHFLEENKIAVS
Setting: 8-mer, flanks averaged, mean of replicates
Strand	E-score
AATGCGCT	-0.0869
AGAGTGTC	0.0512
AGAGAGCC	-0.207
AGAAAAAC	0.169

Other studies, line by line
Substance	target	test	test system	setting	how to read	measurement	result
PhoQ, residues 284 288 289 292 302 303 GLASVI	PhoP, residues 12 14 15 18 19 SQCLL (Escherichia coli, UniProt P23836)	Sort-seq, measured: YFP reporter	E. coli	PhoQ-PhoP variant library, together with: 10 µM Mg2+	reference: high Mg2+ state, higher = stronger signaling	fold induction	3.35

Some of these lines once more (sample 1):
Strand	fitted relative affinity [z-score]
TTAGGTTTCAGGTTTCGGTTAGTGCTA	6.78
TGTCATATACACATCTTCTGGTGCTAG	1.11
